{"data": "Published values from different studies", "note": "A part holds a random share of what one study measured. “And” joins repeats or separate records; there may be more than shown. Numbers after ± are the reported error.", "chain of UniProt P41143 (whole entry, unmodified, looked up)": "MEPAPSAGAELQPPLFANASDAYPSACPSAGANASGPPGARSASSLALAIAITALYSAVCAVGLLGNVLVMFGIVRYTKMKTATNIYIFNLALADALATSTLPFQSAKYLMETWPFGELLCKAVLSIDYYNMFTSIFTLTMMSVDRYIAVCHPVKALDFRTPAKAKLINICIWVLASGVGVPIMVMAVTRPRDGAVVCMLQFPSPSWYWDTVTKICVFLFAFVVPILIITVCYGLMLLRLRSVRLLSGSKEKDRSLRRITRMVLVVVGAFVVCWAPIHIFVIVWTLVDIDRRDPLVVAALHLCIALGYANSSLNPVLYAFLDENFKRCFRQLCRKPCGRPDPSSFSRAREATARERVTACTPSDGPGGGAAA", "chain of UniProt P32300 (whole entry, looked up)": "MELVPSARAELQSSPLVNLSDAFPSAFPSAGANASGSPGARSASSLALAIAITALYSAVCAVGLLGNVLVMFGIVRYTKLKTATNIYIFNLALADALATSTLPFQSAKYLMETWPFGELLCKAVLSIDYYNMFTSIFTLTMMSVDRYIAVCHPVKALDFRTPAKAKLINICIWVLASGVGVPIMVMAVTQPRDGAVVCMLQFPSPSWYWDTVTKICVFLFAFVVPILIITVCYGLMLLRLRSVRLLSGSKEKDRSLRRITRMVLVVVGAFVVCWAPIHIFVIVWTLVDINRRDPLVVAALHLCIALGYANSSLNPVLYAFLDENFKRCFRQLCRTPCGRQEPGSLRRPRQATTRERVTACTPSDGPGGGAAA"}
{"data": "Block 1", "SMILES": "CCCCC[C@@H]1CC(=O)N[C@@H](C(C)C)C(=O)N[C@H](CCCNC(=N)N)C(=O)N[C@@H](C(C)C)C(=O)NCC(=O)N2CCC[C@H]2C(=O)N[C@@H](CC(C)C)C(=O)N[C@H](CCCNC(=N)N)C(=O)N[C@@H](CCC(=O)O)C(=O)N[C@H](Cc2ccc(O)cc2)C(=O)N[C@H](Cc2c[nH]c3ccccc23)C(=O)NCCCC(=O)O1", "species": "mouse, S. aureus infection", "route": "subcutaneous"}
{"dose": "5 mg/kg", "time": "day 1", "survival [%]": 40}
{"dose": "30 mg/kg", "time": "day 1", "survival [%]": 100}
{"dose": "30 mg/kg", "time": "day 0", "survival [%]": 100}
{"dose": "5 mg/kg", "time": "day 5", "survival [%]": 40}
{"dose": "10 mg/kg", "time": "day 5", "survival [%]": 100}
{"data": "Block 2", "Compound": "C=CCN1C(=O)C(O)(C(=O)O)Oc2cc(F)ccc21 (stereo not drawn)"}
{"organism": "Alopecurus japonicus", "test": "fresh weight", "conditions": "150 g ai/ha, pre-emergence treatment", "inhibition": "54.4% and 55.9% and 56.2%"}
{"organism": "Oryza sativa", "test": "fresh weight", "conditions": "soil surface spray, 150 g ai/ha, 21 days, pre-emergence crop safety", "inhibition": "2% and 3% and 4.5%"}
{"organism": "Zea mays", "test": "fresh weight", "conditions": "soil surface spray, 150 g ai/ha, 21 days, pre-emergence crop safety", "inhibition": "21.2% and 25.4% and 19.4%"}
{"organism": "Arabidopsis thaliana", "test": "root length", "test system": "Col-0", "conditions": "25.0 µg/mL, 7 days, seed germination, dark", "inhibition": "20.1%"}
{"organism": "Arabidopsis thaliana", "test": "root length", "test system": "Col-0, seedlings", "conditions": "12.5 µg/mL", "scale": "relative to: water control", "inhibition": "14.5%"}
{"data": "Block 3", "Compound": "N=C(N)NCCCCCCN1CCC23c4c5ccc(O)c4OC2c2nc4ccccc4cc2CC3(O)C1C5 (stereo not drawn)"}
{"target": "Delta-type opioid receptor, with Gi1 (OPRD1, Homo sapiens, UniProt P41143, S311A)", "observed": "G protein activation", "mode": "agonist", "Emax": "56 ± 2%"}
{"target": "Delta-type opioid receptor, with GoB (OPRD1, Homo sapiens, UniProt P41143)", "cells": "human cells", "Emax": "86 ± 2%"}
{"target": "Delta-type opioid receptor, with Gi1 (Oprd1, Mus musculus, UniProt P32300)", "observed": "Gi1 activation", "mode": "agonist", "technique": "cell-based", "Emax": "71%"}
{"target": "Delta-type opioid receptor, with Gi1 (OPRD1, Homo sapiens, UniProt P41143, S135A)", "observed": "G protein activation", "mode": "agonist", "Emax": "12 ± 7%"}
{"target": "Delta-type opioid receptor, with Gi3 (OPRD1, Homo sapiens, UniProt P41143)", "cells": "human cells", "Emax": "77 ± 2%"}
{"target": "Delta-type opioid receptor, with GoA (OPRD1, Homo sapiens, UniProt P41143)", "cells": "human cells", "Emax": "83 ± 2%"}
{"target": "Delta-type opioid receptor, with Gi2 (OPRD1, Homo sapiens, UniProt P41143)", "cells": "human cells", "Emax": "74 ± 4%"}
{"target": "Delta-type opioid receptor, with Gi1 (OPRD1, Homo sapiens, UniProt P41143, D95A)", "observed": "G protein activation", "mode": "agonist", "Emax": "33 ± 7%"}
{"data": "Block 4", "SMILES": "Cn1cc(-c2cccc(CN3CCC4(CC3)COc3c4ccc4c3CN([C@H]3CCC(=O)NC3=O)C4=O)c2)cn1", "species": "Crbn I391V mouse, MC-38 tumour"}
{"dose": "30 mg/kg", "time": "day 21", "with": "anti-LAG3 antibody 10 mg/kg weekly", "tumour volume": "63.2 mm3 and 353 mm3 and 2110 mm3 and 727 mm3 and 1460 mm3 and 1350 mm3 and 350 mm3"}
{"route": "oral, daily", "dose": "30 mg/kg", "time": "day 1", "notes": "anti-PD1 combination study", "tumour volume": "95.6 mm3 and 105 mm3 and 82 mm3 and 92.8 mm3 and 100 mm3"}
{"dose": "30 mg/kg", "time": "day 13", "with": "anti-LAG3 antibody 10 mg/kg weekly", "tumour volume": "1000 mm3 and 122 mm3 and 859 mm3 and 400 mm3"}
{"dose": "30 mg/kg", "time": "day 41", "with": "anti-LAG3 antibody 10 mg/kg weekly", "tumour volume": "323 mm3"}
{"dose": "30 mg/kg", "time": "day 44", "with": "anti-LAG3 antibody 10 mg/kg weekly", "tumour volume": "640 mm3"}
{"dose": "30 mg/kg", "time": "day 1", "with": "anti-LAG3 antibody 10 mg/kg weekly", "tumour volume": "67.8 mm3 and 75.1 mm3 and 90.1 mm3 and 83.9 mm3"}
{"route": "oral", "dose": "30 mg/kg once daily", "time": "day 3", "tumour volume": "106 mm3 and 122 mm3 and 127 mm3 and 155 mm3 and 142 mm3"}
{"dose": "30 mg/kg", "time": "day 23", "with": "anti-LAG3 antibody 10 mg/kg weekly", "tumour volume": "792 mm3 and 356 mm3 and 1380 mm3 and 1030 mm3 and 440 mm3 and 36.6 mm3"}
{"dose": "30 mg/kg", "time": "day 34", "with": "anti-LAG3 antibody 10 mg/kg weekly", "tumour volume": "189 mm3 and 1690 mm3 and 1250 mm3"}
{"note": "A few entries again (block 4):"}
{"route": "oral, daily", "dose": "30 mg/kg", "time": "day 1", "notes": "anti-PD1 combination study", "tumour volume": "95.6 mm3 and 105 mm3 and 82 mm3 and 92.8 mm3 and 100 mm3"}
{"dose": "30 mg/kg", "time": "day 13", "with": "anti-LAG3 antibody 10 mg/kg weekly", "tumour volume": "1000 mm3 and 122 mm3 and 859 mm3 and 400 mm3"}
{"dose": "30 mg/kg", "time": "day 41", "with": "anti-LAG3 antibody 10 mg/kg weekly", "tumour volume": "323 mm3"}
{"dose": "30 mg/kg", "time": "day 44", "with": "anti-LAG3 antibody 10 mg/kg weekly", "tumour volume": "640 mm3"}
